Results collected from several papers.
Numbered parts are unrelated; each lists some results of a single study. “And” joins repeats or separate records; there may be more than shown.
Chain of UniProt Q15139 (whole entry, looked up): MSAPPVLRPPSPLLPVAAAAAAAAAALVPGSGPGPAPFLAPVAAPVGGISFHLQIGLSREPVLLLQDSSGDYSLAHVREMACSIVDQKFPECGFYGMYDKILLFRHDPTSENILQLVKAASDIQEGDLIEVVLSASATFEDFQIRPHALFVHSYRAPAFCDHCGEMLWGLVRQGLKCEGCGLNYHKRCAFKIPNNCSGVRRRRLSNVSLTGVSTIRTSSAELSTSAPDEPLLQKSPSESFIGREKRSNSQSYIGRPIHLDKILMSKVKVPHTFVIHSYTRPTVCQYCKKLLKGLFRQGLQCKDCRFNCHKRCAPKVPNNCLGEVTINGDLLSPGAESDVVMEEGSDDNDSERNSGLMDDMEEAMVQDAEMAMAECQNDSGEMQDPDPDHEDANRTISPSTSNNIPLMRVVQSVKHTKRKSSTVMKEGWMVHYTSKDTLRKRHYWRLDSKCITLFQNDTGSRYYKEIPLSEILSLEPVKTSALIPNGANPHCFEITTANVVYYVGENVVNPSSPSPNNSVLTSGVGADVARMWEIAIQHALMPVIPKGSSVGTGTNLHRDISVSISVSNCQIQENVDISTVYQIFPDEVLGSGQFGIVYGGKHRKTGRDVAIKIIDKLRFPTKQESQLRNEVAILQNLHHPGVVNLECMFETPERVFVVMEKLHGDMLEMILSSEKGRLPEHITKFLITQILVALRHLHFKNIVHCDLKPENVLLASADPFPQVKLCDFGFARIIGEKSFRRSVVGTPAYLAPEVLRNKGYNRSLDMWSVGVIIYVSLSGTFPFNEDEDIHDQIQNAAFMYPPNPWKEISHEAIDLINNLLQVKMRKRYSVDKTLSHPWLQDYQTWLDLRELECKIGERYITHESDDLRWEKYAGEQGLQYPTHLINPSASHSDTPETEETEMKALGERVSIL
Chain of UniProt P52333 (whole entry, looked up): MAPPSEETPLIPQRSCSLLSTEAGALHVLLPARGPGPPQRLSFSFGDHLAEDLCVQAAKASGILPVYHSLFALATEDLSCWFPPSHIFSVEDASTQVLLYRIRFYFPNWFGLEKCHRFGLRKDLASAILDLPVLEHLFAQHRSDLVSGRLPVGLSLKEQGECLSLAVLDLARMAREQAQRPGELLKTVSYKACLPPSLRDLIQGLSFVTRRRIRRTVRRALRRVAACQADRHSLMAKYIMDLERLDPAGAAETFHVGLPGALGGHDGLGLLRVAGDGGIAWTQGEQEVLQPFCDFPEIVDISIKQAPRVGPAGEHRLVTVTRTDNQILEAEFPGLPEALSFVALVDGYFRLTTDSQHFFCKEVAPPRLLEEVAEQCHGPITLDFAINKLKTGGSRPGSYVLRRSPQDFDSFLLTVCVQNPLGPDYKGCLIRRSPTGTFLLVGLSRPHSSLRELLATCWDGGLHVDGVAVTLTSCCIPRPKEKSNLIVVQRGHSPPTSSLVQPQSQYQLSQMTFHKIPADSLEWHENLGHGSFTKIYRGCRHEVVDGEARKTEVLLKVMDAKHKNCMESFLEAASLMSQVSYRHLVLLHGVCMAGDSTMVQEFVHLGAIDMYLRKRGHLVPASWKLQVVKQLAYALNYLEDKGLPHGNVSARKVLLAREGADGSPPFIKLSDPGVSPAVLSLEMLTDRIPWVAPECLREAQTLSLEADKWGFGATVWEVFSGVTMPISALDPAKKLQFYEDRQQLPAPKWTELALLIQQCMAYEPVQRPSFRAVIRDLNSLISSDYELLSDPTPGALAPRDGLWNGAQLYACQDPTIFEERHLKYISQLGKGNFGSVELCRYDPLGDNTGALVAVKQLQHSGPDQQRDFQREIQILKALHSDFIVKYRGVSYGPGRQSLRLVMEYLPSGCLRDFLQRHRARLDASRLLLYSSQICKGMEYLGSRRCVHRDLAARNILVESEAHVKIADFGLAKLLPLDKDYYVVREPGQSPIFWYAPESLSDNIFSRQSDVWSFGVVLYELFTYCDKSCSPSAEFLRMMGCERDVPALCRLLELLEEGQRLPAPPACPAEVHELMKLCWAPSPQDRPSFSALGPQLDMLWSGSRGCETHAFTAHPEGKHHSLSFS
Chain of UniProt P42336 (whole entry, looked up): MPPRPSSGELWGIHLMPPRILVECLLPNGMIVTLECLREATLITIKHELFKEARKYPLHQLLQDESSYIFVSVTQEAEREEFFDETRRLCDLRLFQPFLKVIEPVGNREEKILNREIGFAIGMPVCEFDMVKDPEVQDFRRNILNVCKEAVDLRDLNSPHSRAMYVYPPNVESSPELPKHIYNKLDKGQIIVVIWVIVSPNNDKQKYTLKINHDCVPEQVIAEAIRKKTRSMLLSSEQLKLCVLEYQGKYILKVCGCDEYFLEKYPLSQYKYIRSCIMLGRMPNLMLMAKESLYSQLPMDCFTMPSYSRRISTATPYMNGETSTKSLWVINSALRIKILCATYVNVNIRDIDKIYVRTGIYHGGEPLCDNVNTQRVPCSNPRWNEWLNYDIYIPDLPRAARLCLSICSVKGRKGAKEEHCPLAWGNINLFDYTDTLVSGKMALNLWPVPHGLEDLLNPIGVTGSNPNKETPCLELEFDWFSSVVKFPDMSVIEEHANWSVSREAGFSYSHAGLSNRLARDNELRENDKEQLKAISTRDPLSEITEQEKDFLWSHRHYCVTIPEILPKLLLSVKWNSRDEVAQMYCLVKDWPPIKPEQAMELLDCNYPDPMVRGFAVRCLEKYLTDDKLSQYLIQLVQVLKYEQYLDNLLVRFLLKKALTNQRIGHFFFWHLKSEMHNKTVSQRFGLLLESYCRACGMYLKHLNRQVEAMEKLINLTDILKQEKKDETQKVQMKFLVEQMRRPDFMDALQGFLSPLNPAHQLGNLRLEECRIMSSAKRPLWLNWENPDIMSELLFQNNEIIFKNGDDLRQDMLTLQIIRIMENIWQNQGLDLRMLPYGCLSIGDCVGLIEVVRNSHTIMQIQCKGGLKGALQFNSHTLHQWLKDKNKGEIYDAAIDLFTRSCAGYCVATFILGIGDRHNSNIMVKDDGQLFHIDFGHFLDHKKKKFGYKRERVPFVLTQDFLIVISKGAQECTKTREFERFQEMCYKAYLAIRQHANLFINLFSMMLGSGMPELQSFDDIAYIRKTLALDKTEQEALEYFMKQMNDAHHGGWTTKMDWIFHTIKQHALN
Chain of UniProt P07949 (whole entry, looked up): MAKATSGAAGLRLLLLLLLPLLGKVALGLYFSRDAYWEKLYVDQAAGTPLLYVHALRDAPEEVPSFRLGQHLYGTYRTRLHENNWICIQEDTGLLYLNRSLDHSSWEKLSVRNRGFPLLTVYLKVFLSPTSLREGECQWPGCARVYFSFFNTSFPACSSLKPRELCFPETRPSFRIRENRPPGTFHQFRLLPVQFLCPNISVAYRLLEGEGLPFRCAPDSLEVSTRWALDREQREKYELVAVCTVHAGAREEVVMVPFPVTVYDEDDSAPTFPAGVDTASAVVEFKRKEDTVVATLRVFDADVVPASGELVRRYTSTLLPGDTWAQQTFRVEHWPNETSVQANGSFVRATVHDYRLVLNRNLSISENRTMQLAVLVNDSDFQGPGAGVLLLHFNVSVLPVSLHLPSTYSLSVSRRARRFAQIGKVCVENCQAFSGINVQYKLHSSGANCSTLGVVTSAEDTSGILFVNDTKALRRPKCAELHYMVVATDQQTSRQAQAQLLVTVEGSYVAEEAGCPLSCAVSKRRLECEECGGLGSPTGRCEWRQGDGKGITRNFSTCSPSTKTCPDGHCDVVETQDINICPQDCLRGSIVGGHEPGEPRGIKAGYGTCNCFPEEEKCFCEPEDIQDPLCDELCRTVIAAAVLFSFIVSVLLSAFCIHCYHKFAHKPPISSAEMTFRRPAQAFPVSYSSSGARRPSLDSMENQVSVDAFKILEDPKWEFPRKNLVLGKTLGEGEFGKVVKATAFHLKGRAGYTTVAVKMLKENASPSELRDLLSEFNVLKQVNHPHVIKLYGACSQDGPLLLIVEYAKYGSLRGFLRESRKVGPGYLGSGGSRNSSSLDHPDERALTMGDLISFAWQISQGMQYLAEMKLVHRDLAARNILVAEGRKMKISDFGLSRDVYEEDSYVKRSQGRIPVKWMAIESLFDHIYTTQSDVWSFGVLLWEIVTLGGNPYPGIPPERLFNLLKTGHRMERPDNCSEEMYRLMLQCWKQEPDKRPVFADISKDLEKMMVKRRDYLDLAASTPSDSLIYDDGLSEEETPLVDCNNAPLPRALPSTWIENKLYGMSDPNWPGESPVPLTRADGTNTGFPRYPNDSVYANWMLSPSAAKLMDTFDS
Chain of UniProt P45984 (whole entry, looked up): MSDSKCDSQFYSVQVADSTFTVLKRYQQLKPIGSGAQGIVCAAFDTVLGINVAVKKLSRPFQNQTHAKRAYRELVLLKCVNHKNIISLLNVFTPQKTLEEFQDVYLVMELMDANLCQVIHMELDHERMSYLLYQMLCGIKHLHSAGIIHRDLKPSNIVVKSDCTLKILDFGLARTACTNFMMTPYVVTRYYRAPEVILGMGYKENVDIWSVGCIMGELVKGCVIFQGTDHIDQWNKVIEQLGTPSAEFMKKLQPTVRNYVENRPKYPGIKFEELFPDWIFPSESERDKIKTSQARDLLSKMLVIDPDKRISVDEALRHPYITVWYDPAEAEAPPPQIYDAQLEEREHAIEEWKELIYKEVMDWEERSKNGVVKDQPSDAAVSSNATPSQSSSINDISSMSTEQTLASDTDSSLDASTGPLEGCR

Set 1 — species: human; medium: microsomes or S9; concentration: 2 µM; time: 0.5 h; endpoint: remaining compound
Cc1cccc(S(=O)(=O)Nc2nc3ncc(Br)nc3s2)c1: 44.6%
CCOc1ccccc1NC(=O)c1cc2cc(C)ccc2[nH]1: 44.7%
COC(=O)c1ccc(C2Nc3cc(C)c(C)cc3NC3=C2C(=O)CC(C)(C)C3)cc1 (stereo not drawn): 9.14%
CC(=O)c1c(Nc2ccc(F)cc2)nn(-c2ccccc2)c1C: 6.34%

Set 2 — technique: competitive binding panel; concentration: 1 µM; relative to: vehicle; endpoint: remaining binding
Structure (SMILES): Cc1ccc(NC(=O)c2ccnc(C(F)(F)F)c2)cc1-c1cc(OCCO)nc(N2CCOCC2)c1
Tyrosine-protein kinase JAK3 (JAK3, Homo sapiens, UniProt P52333); JH1 catalytic domain: 72%
Serine/threonine-protein kinase 32C (STK32C, Homo sapiens, UniProt Q86UX6); item: YANK3: 100%
Aurora kinase A (AURKA, Homo sapiens, UniProt O14965): 98%

Set 3 — cell line: HaCaT; concentration: 100 µM; time: 18 h; endpoint: viability
N[C@@H](Cc1c[nH]c2ccccc12)C(=O)O: 99.4%
[H]/N=C(/N)N/C(=N/[H])NCCc1ccccc1: 122%
COc1cc2nc(N(C)CCCNC(=O)C3CCCO3)nc(N)c2cc1OC (stereo not drawn): 92.2%
O=C1NC(=O)C(c2ccccc2)(c2ccccc2)N1: 99.6%
CC(C)(C)C(=O)OCOP(=O)(COCCn1cnc2c(N)ncnc21)OCOC(=O)C(C)(C)C: 91.8%

Set 4 — effect on: cell-free assay; technique: competition with immobilised ligand; concentration: 1 µM; endpoint: remaining binding
SMILES: N#CC1(c2ccccn2)CCN(Cc2cc(C(=O)N3CCCC3)c(=O)n3ccccc23)CC1
Ephrin type-A receptor 6 (EPHA6, Homo sapiens, UniProt Q9UF33): 100%
Dual specificity mitogen-activated protein kinase kinase 5 (MAP2K5, Homo sapiens, UniProt Q13163): 100%
Proto-oncogene tyrosine-protein kinase receptor Ret (RET, Homo sapiens, UniProt P07949): 74%
Tyrosine-protein kinase JAK1, JH1 (JAK1, Homo sapiens, UniProt P23458): 95%
Serine/threonine-protein kinase pim-2 (PIM2, Homo sapiens, UniProt Q9P1W9): 77%
Atypical kinase COQ8B, mitochondrial (COQ8B, Homo sapiens, UniProt Q96D53): 100%
5'-AMP-activated protein kinase catalytic subunit alpha-2 (PRKAA2, Homo sapiens, UniProt P54646): 100%
Serine/threonine-protein kinase RIO2 (RIOK2, Homo sapiens, UniProt Q9BVS4): 95%
Testis-specific serine/threonine-protein kinase 3 (TSSK3, Homo sapiens, UniProt Q96PN8): 100%
Macrophage-stimulating protein receptor (MST1R, Homo sapiens, UniProt Q04912): 100%
Tyrosine-protein kinase Fyn (FYN, Homo sapiens, UniProt P06241): 83%
NUAK family SNF1-like kinase 2 (NUAK2, Homo sapiens, UniProt Q9H093): 100%
Tyrosine-protein kinase receptor Tie-1 (TIE1, Homo sapiens, UniProt P35590): 98%
Phosphatidylinositol 4,5-bisphosphate 3-kinase catalytic subunit alpha isoform (PIK3CA, Homo sapiens, UniProt P42336): 80%
Mitogen-activated protein kinase 9 (MAPK9, Homo sapiens, UniProt P45984): 97%
Serine/threonine-protein kinase Nek9 (NEK9, Homo sapiens, UniProt Q8TD19): 99%
Serine/threonine-protein kinase SIK3 (SIK3, Homo sapiens, UniProt Q9Y2K2): 100%
Serine/threonine-protein kinase MARK2 (MARK2, Homo sapiens, UniProt Q7KZI7): 100%
Tyrosine-protein kinase receptor UFO (AXL, Homo sapiens, UniProt P30530): 78%
Serine/threonine-protein kinase D1 (PRKD1, Homo sapiens, UniProt Q15139): 95%

Set 5 — cell line: mouse MPNST tumor cells; technique: high-content nuclear imaging; item: cell number; concentration: 10 µM; time: 12 h; setting: mean of 2 replicates; relative to: plate mean; reading: higher = more cells; endpoint: nuclei count
C#CCN(C)CCCOc1ccc(Cl)cc1Cl: 1.52 z-score
CC1CCN(C(c2ccc(F)cc2)c2ccc(C(C)C(=O)O)cc2-c2ccc(C(F)(F)F)cc2)CC1 (stereo not drawn): 4.32 z-score
N=C(N)NCC1COC2(CCCCC2)O1 (stereo not drawn): 0.617 z-score
CC(C)Oc1ncc(-c2nc(-c3cccc4c3ccn4CCCC(=O)O)no2)cc1Cl: 3.12 z-score
Nc1cc(-c2ccncc2)c[nH]c1=O: 1.92 z-score

Set 6 — effect on: RNA clamping; technique: fluorescence polarization; concentration: concentration not given; setting: mean of two replicates; together with: FAM-labelled poly r(AG)8 RNA; endpoint: fluorescence polarization change
Target: Eukaryotic initiation factor 4A-III (Homo sapiens, UniProt P38919)
Chain of UniProt P38919 (whole entry, looked up): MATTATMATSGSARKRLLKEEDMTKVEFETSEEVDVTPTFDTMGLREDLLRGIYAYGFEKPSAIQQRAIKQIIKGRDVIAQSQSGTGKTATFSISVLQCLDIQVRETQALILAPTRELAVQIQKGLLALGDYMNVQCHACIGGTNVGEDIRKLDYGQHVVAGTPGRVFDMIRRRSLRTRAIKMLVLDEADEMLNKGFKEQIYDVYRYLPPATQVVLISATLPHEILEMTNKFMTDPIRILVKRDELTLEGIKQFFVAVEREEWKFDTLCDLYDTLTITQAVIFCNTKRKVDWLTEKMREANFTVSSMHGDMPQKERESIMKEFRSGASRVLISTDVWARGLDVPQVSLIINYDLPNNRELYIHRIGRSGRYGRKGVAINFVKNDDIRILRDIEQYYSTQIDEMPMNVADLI
COC(=O)[C@H]1C(=O)[C@@]2(NC34C[C@H]5C[C@@H](C3)C[C@@H](C4)C5)c3c(OC)cc(OC)cc3O[C@@]2(c2ccc(OC)cc2)[C@@H]1c1ccccc1: 1.4 mP
C#CCCCOC(=O)/C=C/Cn1c(-c2ccccc2)nc2c(c1=O)[C@@H](c1ccccc1)[C@]1(c3ccc(OC)cc3)Oc3cc(OC)cc(OC)c3[C@]21O: 5.9 mP
C#CCN[C@@]12C(=O)[C@H](C(=O)OC)[C@@H](c3ccccc3)[C@]1(c1ccc(OC)cc1)Oc1cc(OC)cc(OC)c12: 1.9 mP
COC(=O)[C@@H]1[C@@H](c2ccccc2)[C@]2(c3ccc(OC)cc3)Oc3cc(OC)cc(OC)c3[C@@]23OC(c2cccc(OC)c2)=N[C@@]13O: -0.7 mP

Mixed results
CC(=O)N[C@@H](Cc1c[nH]c2ccccc12)C(=O)N[C@@H](CCC(=O)C=[N+]=[N-])C(=O)OC(C)C
ribulose/xylulose level (UPLC-MS/MS; EL4 tumor, C57BL/6 CES1-/- mice, tumor; subcutaneous, 0.3 mg/kg DON equivalent daily, 5 days; higher = more metabolite): 1.16e+06 a.u. and 1.39e+06 a.u. and 1.54e+06 a.u. and 1.92e+06 a.u. and 1.28e+06 a.u. and 1.38e+06 a.u.

Repeated from above (set 4):
Serine/threonine-protein kinase RIO2 (RIOK2, Homo sapiens, UniProt Q9BVS4): 95%
Testis-specific serine/threonine-protein kinase 3 (TSSK3, Homo sapiens, UniProt Q96PN8): 100%
Macrophage-stimulating protein receptor (MST1R, Homo sapiens, UniProt Q04912): 100%
Tyrosine-protein kinase Fyn (FYN, Homo sapiens, UniProt P06241): 83%
NUAK family SNF1-like kinase 2 (NUAK2, Homo sapiens, UniProt Q9H093): 100%
